Results pooled from the literature.
Each line is one published result; not all experiments were run side by side. Several values in a cell are separate wells, animals, samples, runs or records.

colistin — FIC index (Escherichia coli; tetracycline-resistant; 0.0156 µM, with: tetracycline): 0.6
CAGATACTCT — MIC (Salmonella enterica Typhimurium; broth microdilution; peptide, SL1344; range over 0.3-10 µM, 24 h, 37 °C, Mueller-Hinton broth): > 10 µM
GSGAGSETVV — binding intensity (human MAGI1-3/6 PDZ construct (MBP fusion); automated holdup; peptide, crude extract; concentration not given, corrected by standard peak, unit not given; baseline: biotin control resin, higher = stronger binding): 0.151
Polymyxin B — membrane depolarisation (Staphylococcus aureus; DiSC3(5) fluorescence; concentration not given, 66 min; higher = more depolarisation): 496 a.u. and 676 a.u. and 564 a.u.
LVHYTHCGSLGV — EBV DNA copy number (Epstein-Barr virus; BamHI-W qPCR; peptide, B-NDG humanized mouse, EBV-infected, peripheral blood; 20 mg/kg, day 14): 0 copies
CTCATTGTCT — log2 fold change (Salmonella enterica Typhimurium; RNA-seq, item: pipB2 mRNA; peptide, SL1344; 5 µM, 15 min; baseline: water control): 2.87
GSGAGKETSF — binding intensity (human MAGI1-3/6 PDZ construct (MBP fusion); automated holdup; peptide, crude extract; concentration not given, uncorrected, unit not given; baseline: biotin control resin, higher = stronger binding): -0.143
maraviroc — HIV-1 pol decrease (HIV-1 ADA; viral replication, qPCR; HIV-infected mice, brain; ip, 120 mg/kg twice daily, 3 weeks post-infection, normalized to CD45+ cells; baseline: untreated HIV-infected mice): 34.8 fold
colistin — MIC (Enterobacter cloacae; broth microdilution; clinical isolate RKI-No 1026/14-1): 8 µg/mL
colistin — MIC (Acinetobacter baumannii; clinical strain 2E8): 1.5 µg/mL
milbemycin oxime — OD600 (Saccharomyces cerevisiae; cell growth; Pdr5 deleted, Cdr1 overexpressed; 2^-7.966 µg/mL, with: fluconazole 1 µg/mL): 1.02 and 1 and 1.04
CTCATAGACT — MIC (Salmonella enterica Typhimurium; broth microdilution; peptide, SL1344; range over 0.3-10 µM, 24 h, 37 °C, Mueller-Hinton broth): > 10 µM

Repeated from above:
LVHYTHCGSLGV — EBV DNA copy number (Epstein-Barr virus; BamHI-W qPCR; peptide, B-NDG humanized mouse, EBV-infected, peripheral blood; 20 mg/kg, day 14): 0 copies
